Assay results collected from several papers.
Cell line: HepG2

The viability of O=C1CCNC(=O)[C@@H]2CCCN2C(=O)CCNC(=O)[C@H](Cc2c[nH]cn2)NC(=O)[C@H](Cc2c[nH]cn2)N1 is reported as 84.5% (LDH; 10 µg/mL, 6 h, 1% FBS).
Cc1ccc2nc(-c3ccccc3)c(CN3CCCC3)n2c1 has an EC50 of greater than 50 µM (cell growth or viability; 48 h).
The SOD activity of CC(=O)O[C@@H]1CC[C@@]2(C)C(CC[C@]3(C)C2C(=O)C=C2C4[C@@H](C)[C@H](C)CC[C@]4(C)CC[C@]23C)[C@@]1(C)C(=O)OCC(=O)Oc1cc(C)ccc1C(C)C (some centres unmarked) is reported as 73 U/mg (item: superoxide dismutase; 10 µM, with: acetaminophen 10 mM).
The EC50 of Cc1ccc(NCC(=O)N2CCCCC2)cc1S(=O)(=O)N1CCOCC1 is reported as greater than 25 µM (cell growth or viability).
The viability of O=C(CCNC(=O)[C@H](Cc1c[nH]cn1)NC(=O)[C@@H]1CCCN1)NCCC(=O)N[C@@H](Cc1c[nH]cn1)C(=O)O is reported as 17% (MTT; 10 µg/mL, 6 h).
For CC(=O)O[C@@H]1CC[C@@]2(C)C(CC[C@]3(C)C2C(=O)C=C2C4[C@@H](C)[C@H](C)CC[C@]4(C)CC[C@]23C)[C@@]1(C)C(=O)N/N=C1/C(=O)Nc2ccccc21 (some centres unmarked), the inhibition was roughly 39% (IL-1β production, ELISA, item: IL-1β; 1 µM, with: acetaminophen 10 mM; reference: acetaminophen-treated cells).
O=C(/C=C/c1ccc(O)cc1)OCCCC[P+](c1ccccc1)(c1ccccc1)c1ccccc1 gave a therapeutic index of 5.26 (SRB; 48 h; reference: IC50 L02 over IC50 HepG2).
For COC(=O)C1C(C=NO)=Cc2cc3c(cc2C1c1cc(OC)c(OC)c(OC)c1)OCO3 (centres unmarked), the selectivity index was greater than 1.7 (reference: CC50 HepG2 over amastigote EC50).
The EC50 of CCOC(=O)c1c(-c2ccc(C)cc2)oc2nc(N3CC[C@H](F)C3)ccc12 is reported as greater than 50 µM (cell growth or viability; 48 h).
With Cc1ccc(NC(C)(C)C(=O)Nc2ccc(F)c(Cl)c2)cc1S(=O)(=O)N1CC2CC1CO2 (centres unmarked) the EC50 was greater than 25 µM (cell growth or viability).
For CSC(=S)N/N=C(\C)c1ccc(S(=O)(=O)N2CCC(C)CC2)cc1, “cells in pre-G1 phase” read 11.8% (flow cytometry; 3.31 µM (IC50), 72 h).
Cc1ccc(Nc2ncc3c(n2)N(Cc2ccccc2)C(=O)N(c2cc(NC(=O)c4cccc(C(F)(F)F)c4)ccc2C)C3)cn1 gave a GI50 of 1.27 µM (cell growth or viability, ATP luminescence; 72 h).
For CC(=NN=c1sc(C(=O)c2ccccc2)nn1-c1ccccc1)c1ccc(S(=O)(=O)N2CCC(C)CC2)cc1, “cells in pre-G1 phase” read 22.8% (flow cytometry; 3.31 µM (IC50), 72 h).
O=C(/C=C/c1ccccc1)OCCCC[P+](c1ccccc1)(c1ccccc1)c1ccccc1 gave a therapeutic index of 9.4 (SRB; 24 h; reference: IC50 L02 over IC50 HepG2).
O=C(Nc1cc2nc(-c3cccc(C(F)(F)F)c3)cn2cn1)N1CC[C@H](F)C1 gave an EC50 of greater than 50 µM (cell growth or viability; 48 h).
Under “MDC fluorescence intensity”, CC(=O)O[C@H]1CC[C@]2(C)[C@H]3C(=O)C=C4[C@@H]5C[C@@](C)(C(=O)OCc6ccccc6)CC[C@]5(C)CC[C@@]4(C)[C@]3(C)CC[C@H]2C1(C)C is recorded as 2480 (autophagy, flow cytometry; 8 µM, 48 h, unit not given; reference: untreated).
For CCOc1cccc2c1[O][Pt-2]1([Cl])[N+](=C2)c2ccccc2[NH+]1c1ccccc1 (centres unmarked), “cells in G0/G1 phase” read 21 to 27% (flow cytometry PI; concentration not given, 24 h).
O=C(O)c1cc2cc(O)ccc2n1Cc1ccc(Cl)c(C(F)(F)F)c1 — result for “lowest effective concentration”: no less than 500 µM (oxygen consumption rate, Seahorse; 6 h).
Cc1ccc(Nc2ncc3c(n2)N(C)C(=O)N(c2cc(NC(=O)c4ccccc4)ccc2C)C3)cn1 gave a GI50 of 6.69 µM (cell growth or viability, ATP luminescence; 72 h).
Cc1c(C(=O)NNC(=S)Nc2ccc(Cl)cc2)nnn1Cc1nc2ccccc2[nH]1: “early apoptotic cells” 12.2% (annexin V/PI; concentration not given, 24 h).
For Cc1ccc(NCC(=O)N2CCOCC2)cc1S(=O)(=O)N1CCOCC1, the EC50 was greater than 25 µM (cell growth or viability).
[NH2][Pt]1([NH2])([Cl])([O]C(=O)C(Cl)Cl)[O]C(=O)C2(CC(=O)C2)C(=O)[O]1 — result for “early apoptotic cells”: 21.6% (annexin V-FITC/PI flow cytometry; 50 µM, 24 h).
With Cc1ccc2nc(-c3ccc(F)c(F)c3)c(CN3CCN(c4ccccc4)CC3)n2c1 the EC50 was greater than 50 µM (cell growth or viability; 48 h).
Cc1cc2nc(-c3cc4ccccc4nc3Cl)[nH]c2cc1C: protein level “decreased” (western blot, item: cyclin B1, CDK1, CDC25C; concentration not given; reference: untreated).
CSC(=NN=C(C)c1ccc(S(=O)(=O)N2CCC(C)CC2)cc1)N(C)C — result for “cells in %G2/M”: 31.3% (flow cytometry; 3.31 µM, 72 h).
With Cc1ccc(NCC(=O)Nc2ccc(F)c(Cl)c2)cc1CN1CCOCC1 the EC50 was greater than 25 µM (cell growth or viability).
For O=C(/C=C/c1ccc(O)c(O)c1)OCCCC[P+](c1ccccc1)(c1ccccc1)c1ccccc1, the therapeutic index was 11.2 (SRB; 48 h; reference: IC50 L02 over IC50 HepG2).
For CCC[C@H]1CC[C@H](c2ccc(NC(=S)NC[C@@H]3[C@@H](O)[C@@H](O)[C@H]4[C@H](O)CCCN43)cc2)CC1, cell invasion read “decreased” (Transwell; concentration not given).
With Cc1ccc2nc(-c3ccc(F)c(F)c3)c(CN3CCN(CCc4cccnc4)CC3)n2c1 the EC50 was 40.6 µM (cell growth or viability; 48 h).
With CC(C)(C)c1cc2c(O)c(c1)Cc1cc(C(C)(C)C)cc(c1OCC(=O)Nc1cccc3cccnc13)Cc1cc(C(C)(C)C)cc(c1O)Cc1cc(C(C)(C)C)cc(c1OCC(=O)Nc1cccc3cccnc13)COC2 the inhibition was 26% (cell growth or viability, MTT; 15 µM, 72 h).
Under mRNA level, C[C@H](CC(=O)C[C@@H](C)[C@H]1C[C@H](O)[C@@]2(C)C3=C(C(=O)C[C@]12C)[C@@]1(C)CCC(=O)C(C)(C)[C@@H]1C[C@@H]3O)C(=O)O is recorded as “decreased” (item: PPARA; concentration not given, with: high glucose).
For Cc1ccc(N(C)CC(=O)Nc2ccc(F)c(Cl)c2)cc1S(=O)(=O)N1CCOCC1, the EC50 was greater than 25 µM (cell growth or viability).
OC(CN1CCC2(CC1)CC(O)c1ccc3ccccc3c1O2)c1ccc(F)c(F)c1 (centres unmarked) gave an EC50 of 19 µM (cytotoxicity, MTS; 48 h).
O=C(O)CCNC(=O)[C@H](Cc1c[nH]cn1)NC(=O)[C@H](Cc1c[nH]cn1)NC(=O)CCNC(=O)[C@@H]1CCCN1 has a viability of 18.3% (MTT; 10 µg/mL, 6 h).
Cc1ccc(Nc2ncc3c(n2)N(c2ccccc2)C(=O)N(c2cc(NC(=O)c4cccc(C(F)(F)F)c4)ccc2C)C3)cn1 gave a GI50 of 15.9 µM (cell growth or viability, ATP luminescence; 72 h).
O=C1/C(=C/c2ccc3c(c2)OCCO3)SC(=S)N1[C@@H]1O[C@H](CO)[C@@H](O)[C@H](O)[C@H]1O: “G2/M phase cells” 34.5% (flow cytometry; IC50, 48 h).
Under “G1 phase cells”, CN(C(=NN=C(c1ccccc1)c1ccccn1)[S][Ga]([Cl])[Cl])C1CCCCC1 is recorded as “increased” (PI flow cytometry; 5 µM, 24 h; reference: vehicle).
Cc1ccc(NCC(=O)Nc2ccc(F)c(Cl)c2)cc1S(=O)(=O)N(C)C has an EC50 of greater than 25 µM (cell growth or viability).
C=C1C(=O)C23CCC4C(C)(C)CCCC4(C)C2C(O)CC1C3 (single isomer, unassigned) — result for GSH level: “decreased” (concentration not given).
Cc1ccc(NC(C)(C)C(=O)Nc2ccc(F)c(Cl)c2)cc1S(=O)(=O)N1CC2(COC2)C1 has an EC50 of greater than 25 µM (cell growth or viability).
For Cc1ccc2nc(-c3ccccc3)c(CN3CCN(c4ccc(Cl)cc4)CC3)n2c1, the EC50 was greater than 50 µM (cell growth or viability; 48 h).

Some of these lines once more:
Cc1cc2nc(-c3cc4ccccc4nc3Cl)[nH]c2cc1C: protein level “decreased” (western blot, item: cyclin B1, CDK1, CDC25C; concentration not given; reference: untreated).
CSC(=NN=C(C)c1ccc(S(=O)(=O)N2CCC(C)CC2)cc1)N(C)C — result for “cells in %G2/M”: 31.3% (flow cytometry; 3.31 µM, 72 h).
With Cc1ccc(NCC(=O)Nc2ccc(F)c(Cl)c2)cc1CN1CCOCC1 the EC50 was greater than 25 µM (cell growth or viability).
For O=C(/C=C/c1ccc(O)c(O)c1)OCCCC[P+](c1ccccc1)(c1ccccc1)c1ccccc1, the therapeutic index was 11.2 (SRB; 48 h; reference: IC50 L02 over IC50 HepG2).
For CCC[C@H]1CC[C@H](c2ccc(NC(=S)NC[C@@H]3[C@@H](O)[C@@H](O)[C@H]4[C@H](O)CCCN43)cc2)CC1, cell invasion read “decreased” (Transwell; concentration not given).
With Cc1ccc2nc(-c3ccc(F)c(F)c3)c(CN3CCN(CCc4cccnc4)CC3)n2c1 the EC50 was 40.6 µM (cell growth or viability; 48 h).
With CC(C)(C)c1cc2c(O)c(c1)Cc1cc(C(C)(C)C)cc(c1OCC(=O)Nc1cccc3cccnc13)Cc1cc(C(C)(C)C)cc(c1O)Cc1cc(C(C)(C)C)cc(c1OCC(=O)Nc1cccc3cccnc13)COC2 the inhibition was 26% (cell growth or viability, MTT; 15 µM, 72 h).
